Experimental data from different studies.
Protocols differ between the studies behind these lines. Numbers after ± are the reported error.
Sequence of UniProt P61073 (whole entry, looked up): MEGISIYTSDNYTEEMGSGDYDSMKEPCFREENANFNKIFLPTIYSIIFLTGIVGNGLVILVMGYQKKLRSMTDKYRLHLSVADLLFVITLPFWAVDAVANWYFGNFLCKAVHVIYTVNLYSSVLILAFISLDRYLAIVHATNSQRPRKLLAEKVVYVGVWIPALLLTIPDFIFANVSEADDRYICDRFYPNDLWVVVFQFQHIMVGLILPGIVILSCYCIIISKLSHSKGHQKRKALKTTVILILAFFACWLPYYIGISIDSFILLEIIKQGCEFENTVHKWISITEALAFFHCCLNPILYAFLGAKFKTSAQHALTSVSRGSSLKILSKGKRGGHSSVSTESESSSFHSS
Sequence of UniProt Q9UBE8 (whole entry, looked up): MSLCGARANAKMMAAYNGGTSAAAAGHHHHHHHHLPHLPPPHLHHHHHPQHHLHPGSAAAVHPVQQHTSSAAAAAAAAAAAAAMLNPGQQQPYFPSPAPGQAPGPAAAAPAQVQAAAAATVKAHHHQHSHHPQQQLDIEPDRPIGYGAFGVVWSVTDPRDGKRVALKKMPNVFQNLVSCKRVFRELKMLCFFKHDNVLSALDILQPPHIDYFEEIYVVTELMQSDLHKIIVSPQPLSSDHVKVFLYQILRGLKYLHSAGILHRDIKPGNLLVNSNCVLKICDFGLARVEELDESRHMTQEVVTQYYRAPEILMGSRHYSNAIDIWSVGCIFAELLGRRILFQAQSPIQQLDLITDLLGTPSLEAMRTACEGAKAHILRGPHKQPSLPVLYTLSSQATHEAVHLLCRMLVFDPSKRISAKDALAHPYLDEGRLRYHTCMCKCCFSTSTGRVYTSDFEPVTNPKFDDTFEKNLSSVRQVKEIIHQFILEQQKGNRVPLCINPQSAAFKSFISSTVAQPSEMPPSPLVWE

Structure (SMILES) | tested on | assay | system | conditions | how to read | endpoint | value
CC(C)n1c(C2CCNCC2)nc2c([N+](=O)[O-])c(Br)c(Br)cc21 |  | refers to: Sepsis | AML patients | dose not given, all doses |  | related grade ≥3 adverse events | 1%
C[C@H]1CN(c2n[nH]c3nc(N[C@H]4CC[C@H](NS(=O)(=O)CCC(F)(F)F)CC4)ncc23)CCO1 | NLK (Homo sapiens, UniProt Q9UBE8) | Kinobeads competition | HEK293, K562, placenta lysate | 20 µM, unit not given | baseline: vehicle | remaining binding | 0.13
CN(C)c1ccc(-c2nc(-c3cccs3)c(-c3cccs3)[nH]2)cc1 | Vero-E6 | CellTiter-Glo ATP |  | 72 h, retest 8-point duplicates | baseline: DMSO 0%, hyamine -100%, more negative, more toxic | maximum response | -20%
CC(C)[C@@H]1NC(=O)CNC(=O)[C@H](CC(N)=O)NC(=O)[C@H](CCCNC(=N)N)NC(=O)[C@H](Cc2ccc(O)cc2)NC(=O)[C@H](C(C)C)NC(=O)[C@@H](NC(=O)[C@@H](NC(=O)[C@H](CC(N)=O)NC(=O)[C@H](Cc2c[nH]c3ccccc23)NC(=O)[C@H](C)NC(=O)[C@H](Cc2ccccc2)NC(=O)CN)C(C)C)CSSC[C@@H](C(=O)N[C@@H](Cc2cnc[nH]2)C(=O)N[C@@H](CCCNC(=N)N)C(=O)N[C@@H](CCCNC(=N)N)C(=O)N[C@@H](C)C(=O)N[C@@H](CC(N)=O)C(N)=O)NC(=O)[C@H](C(C)C)NC(=O)[C@H](CCCNC(=N)N)NC1=O |  |  | ICR mouse, blood | intramammary, 10 mg/kg, day 5, 3 d dosing |  | haemoglobin | 120 ± 1.88 g/L
CC[C@H](C)[C@H](NC(=O)[C@H](Cc1ccccc1)NC(=O)[C@H](CCC(=O)O)NC(=O)[C@H](CCCNC(=N)N)NC(=O)[C@H](C)NC(=O)[C@H](C)NC(=O)[C@H](CCC(N)=O)NC(=O)[C@H](CCC(=O)O)NC(=O)[C@H](CCC(=O)O)NC(=O)[C@H](CC(C)C)NC(=O)[C@H](Cc1ccc(O)cc1)NC(=O)[C@H](CO)NC(=O)[C@H](CO)NC(=O)[C@@H](NC(=O)[C@H](CC(=O)O)NC(=O)[C@H](CO)NC(=O)[C@@H](NC(=O)[C@H](Cc1ccccc1)NC(=O)[C@@H](NC(=O)CNC(=O)[C@H](CCC(=O)O)NC(=O)[C@H](C)NC(=O)CCc1c[nH]cn1)[C@@H](C)O)[C@@H](C)O)C(C)C)C(=O)N[C@@H](C)C(=O)N[C@@H](Cc1c[nH]c2ccccc12)C(=O)N[C@@H](CC(C)C)C(=O)N[C@H](C(=O)N[C@@H](CCCNC(=N)N)C(=O)NCC(=O)N[C@@H](CCCNC(=N)N)C(=O)N[C@@H](CCCCNC(=O)COCCOCCNC(=O)COCCOCCNC(=O)CC[C@H](NC(=O)CCCCCCCCCCCCCCCCC(=O)O)C(=O)O)C(=O)NCC(=O)NCC(=O)N[C@@H](CO)C(=O)N[C@@H](CCCCNc1c(NCCCCCN(O)C(=O)CCC(=O)NCCCCCN(O)C(=O)CCC(=O)NCCCCCN(O)C(C)=O)c(=O)c1=O)C(=O)O)C(C)C [zirconium-89 labelled] |  | ex vivo gamma counting | rat, kidney | subcutaneous, 3 nmol/kg, 24 h, added: [89Zr]-labelled peptide |  | tissue uptake | 5.82 %ID/g
C[C@]1(CO)Cc2ncn(-c3ccc(C#N)c(Cl)c3)c2C(=O)O1 |  |  | human | 10 mg multiple doses, fasted |  | subjects with drug-related urine abnormality | 0%
CN(C)CCNC(=O)c1ccc2c(c1)C1(CCN(CC3CC3)C1)CN2Cc1ccccc1 (stereo not drawn) | Vero-E6 | CellTiter-Glo ATP |  | 72 h, retest 8-point duplicates | baseline: DMSO 0%, hyamine -100%, more negative, more toxic | maximum response | -7.36%
O=C1Nc2cc3[nH]nc(-c4ccncc4)c3cc2CN1Cc1ccccc1 |  | refers to: Diarrhea | patients with advanced solid tumours | intravenous, dose not given, all schedules |  | patients with TEAE | 12%
O=C(c1ccc(F)c(F)c1Nc1ccc(I)cc1F)N1CC(O)([C@@H]2CCCCN2)C1 |  |  | patients aged 6 to sample A years | oral, dose not given |  | fatal adverse events | 0%
NC(=O)N1c2ccccc2C=Cc2ccccc21 |  |  | human | oral, dose not given, 25 days, dose up-titration |  | participants with adverse events | 100%
O=[N+]([O-])c1ccc2c(c1)S(=O)(=O)C=C2 |  |  | male C57BL/6 mice, blood | intraperitoneal, 20 mg/kg, day 8, group average |  | mean platelet volume | 5.33 fL
COc1cc(Nc2ncc(F)c(Nc3ccc4c(n3)NC(=O)C(C)(C)O4)n2)cc(OC)c1OC | CXCR4 (Homo sapiens, UniProt P61073) |  |  |  |  | IC50 | > 10 µM
CCCCCCCCCCCCCCCC(=O)N[C@@H](CCC(=O)NCCCC[C@H](NC(=O)[C@H](CC(=O)O)NC(=O)[C@H](CO)NC(=O)[C@@H](NC(=O)[C@H](Cc1ccccc1)NC(=O)[C@@H](NC(=O)CNC(=O)[C@H](CCC(N)=O)NC(=O)[C@H](CO)NC(=O)[C@@H](N)Cc1c[nH]cn1)[C@@H](C)O)[C@@H](C)O)C(=O)N[C@@H](CO)C(=O)N[C@@H](CCC(=O)O)C(=O)N[C@@H](Cc1ccc(O)cc1)C(=O)N[C@@H](CC(C)C)C(=O)N[C@@H](CC(=O)O)C(=O)N[C@@H](CO)C(=O)N[C@@H](CCC(=O)O)C(=O)N[C@@H](CCCNC(=N)N)C(=O)N[C@@H](C)C(=O)N[C@@H](CCCNC(=N)N)C(=O)N[C@@H](CC(=O)O)C(=O)N[C@@H](Cc1ccccc1)C(=O)N[C@H](C(=O)N[C@@H](C)C(=O)N[C@@H](Cc1c[nH]c2ccccc12)C(=O)N[C@@H](CC(C)C)C(=O)N[C@@H](CCC(=O)O)C(=O)N[C@@H](C)C(=O)NCC(=O)NCC(=O)O)C(C)C)C(=O)O |  |  | human, CrCl ≥30 to <45 mL/min | sc, 100 µg single dose |  | injection site bruising | 0%
CO[C@H]1C[C@@H]2CC[C@@H](C)[C@@](O)(O2)C(=O)C(=O)N2CCCC[C@H]2C(=O)O[C@H]([C@H](C)C[C@@H]2CC[C@@H](OC(=O)NCCOCCOCCOCCOCCOCCOCCOCCOCCC(=O)N3CCc4cc(Cn5nc(-c6ccc7oc(N)nc7c6)c6c(N)ncnc65)ccc4C3)[C@H](OC)C2)C[C@@H](O)[C@H](C)/C=C(\C)[C@@H](O)[C@@H](OC)C(=O)[C@H](C)C[C@H](C)/C=C/C=C/C=C/1C |  | phase 1 dose escalation, refers to: mucositis | advanced solid tumour patients | intravenous, 10 mg weekly, grade ≥3 |  | TRAE incidence | 12.5%
O=c1cc(-c2ccc(O)c(O)c2)oc2cc(O)cc(O)c12 |  |  | male Sprague-Dawley rat, obese | oral, 100 mg/kg of neohesperidin, 0 to 12 h |  | faecal excreted amount | 32.2 ± 11.2 ng
O=c1ccc2ncc(=O)n3c2n1C[C@H]3CN1CCC(NCc2cc3c(cn2)OCCC3)CC1 |  |  | male Sprague Dawley rats, wild-type | intravenous infusion, 125 mg/kg |  | renal clearance | 25.9 ± 11.5 mL/min/kg
C[C@@H](O)[C@@H](CO)NC(=O)[C@@H](CCCNC(=N)N)NC(=O)[C@@H]1CCCN1C(=O)[C@@H]1CSSC[C@H](NC(=O)[C@H](Cc2ccccc2)NC(=O)CN2CCN(CC(=O)O)CCN(CC(=O)O)CCN(CC(=O)O)CC2)C(=O)N[C@@H](Cc2ccc(O)cc2)C(=O)N[C@@H](Cc2ccccc2)C(=O)N[C@@H](CCC(N)=O)C(=O)N[C@@H](CC(N)=O)C(=O)N1 [gallium-68 labelled] |  |  | healthy Wistar rat, bone | intravenous, 8 MBq, 30 min, individual animals |  | tissue uptake | 0.12 %ID/g
CC[C@H](C)[C@@H]1NC(=O)[C@@H]2CCCN2C(=O)[C@H](CC(C)C)NC(=O)[C@H](CC(C)C)NC(=O)CNC(=O)[C@@H](NC(=O)[C@@H](NC(=O)[C@H](CC(=O)O)NC(=O)CNC(=O)[C@@H](NC(=O)[C@H](C)NC(=O)CNC(=O)[C@H](CCCCN)NC(=O)[C@H](CC(C)C)NC(=O)[C@H](CC(C)C)NC(=O)[C@H](CCCCN)NC(=O)CNC(=O)[C@@H](NC(=O)[C@@H](N)CC(C)C)C(C)C)C(C)C)C(C)C)CSSC[C@@H](C(=O)O)NC1=O |  | RNA-seq, refers to: Ibsp mRNA | mouse traumatic brain injury, frontal cortex and hippocampus | dose not given | baseline: TBI plus compound vs TBI | log2 fold change | -3.05
CN1CC[C@@H](c2c(O)cc(O)c3c(=O)cc(-c4ccc(C(F)(F)F)cc4Cl)oc23)[C@@H]1CO |  | refers to: Fatigue | B-cell malignancies or AML | oral, 50 mg, continuous dosing |  | patients with adverse event | 0%
CC(=O)c1c(C)c2cnc(Nc3ccc(C4CCN(CCS(C)(=O)=O)CC4)cn3)nc2n(C2CCCC2)c1=O |  |  | human, plasma | oral, 75 mg twice daily, day 1, single dose, added: letrozole |  | Tmax | 1.44 h
COc1cc2c(Oc3ccc4[nH]c(C)cc4c3F)ccnc2cc1OCC1(N)CC1 |  |  | paediatric recurrent refractory sarcoma | 12 mg |  | grade 3 sinus bradycardia | 0%

Some of these lines once more:
Structure (SMILES) | tested on | assay | system | conditions | how to read | endpoint | value
CC[C@H](C)[C@@H]1NC(=O)[C@@H]2CCCN2C(=O)[C@H](CC(C)C)NC(=O)[C@H](CC(C)C)NC(=O)CNC(=O)[C@@H](NC(=O)[C@@H](NC(=O)[C@H](CC(=O)O)NC(=O)CNC(=O)[C@@H](NC(=O)[C@H](C)NC(=O)CNC(=O)[C@H](CCCCN)NC(=O)[C@H](CC(C)C)NC(=O)[C@H](CC(C)C)NC(=O)[C@H](CCCCN)NC(=O)CNC(=O)[C@@H](NC(=O)[C@@H](N)CC(C)C)C(C)C)C(C)C)C(C)C)CSSC[C@@H](C(=O)O)NC1=O |  | RNA-seq, refers to: Ibsp mRNA | mouse traumatic brain injury, frontal cortex and hippocampus | dose not given | baseline: TBI plus compound vs TBI | log2 fold change | -3.05
CN1CC[C@@H](c2c(O)cc(O)c3c(=O)cc(-c4ccc(C(F)(F)F)cc4Cl)oc23)[C@@H]1CO |  | refers to: Fatigue | B-cell malignancies or AML | oral, 50 mg, continuous dosing |  | patients with adverse event | 0%
